# Measured values gathered from unrelated publications.
# Every numbered part comes from another study and shows a few of its results, in no order.

# Block 1
# Target: Histone acetyltransferase KAT6A, both winged helices, GST fusion (KAT6A, Homo sapiens, UniProt Q92794, residues 1-181)
# Method: protein binding microarray
# Form: double-stranded DNA, one strand shown
# Matrix: in vitro
# Concentration: not given
# Setting: 8-mer, flanks averaged, mean of 2 arrays, mostly near background
# Relative to: not given
# Reading: higher = stronger binding
# Target sequence (chain): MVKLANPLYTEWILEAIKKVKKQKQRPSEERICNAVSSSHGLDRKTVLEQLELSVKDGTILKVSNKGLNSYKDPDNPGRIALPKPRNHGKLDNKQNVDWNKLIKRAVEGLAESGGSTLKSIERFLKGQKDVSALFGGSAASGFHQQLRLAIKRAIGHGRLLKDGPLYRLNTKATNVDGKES
Strand,E-score
ATGGCCTA,0.0427
CCTGGGTC,-0.0414
GAGACCCC,-0.0678
AGCTTCCA,-0.0919
CCATACAC,-0.0999
ACACACCG,0.139

# Block 2
# Target: Sal-like protein 4, full length isoform B (SALL4, Homo sapiens, UniProt Q9UJQ4-2, residues 1-616)
# Method: universal PBM
# Form: double-stranded DNA, one strand shown
# Matrix: in vitro
# Concentration: not given
# Setting: 8-mer, flanks averaged, mean of replicates
# Reading: higher = stronger binding
Strand,E-score
ATCCTGTA,0.233
AATCGAAC,0.0439
TAAGTTAA,0.272
ACTGTCTC,-0.151
ATTTACAG,0.216

# Block 3
# Target: Interferon regulatory factor 7, full length, phosphomimetic (IRF7, Homo sapiens, UniProt Q92985, residues 1-503, S101K/S471D/S472D/S475D/S476D/S477D/S483D/S484D/S487D)
# UniProt Q92985, sequence (whole entry, unmodified, looked up): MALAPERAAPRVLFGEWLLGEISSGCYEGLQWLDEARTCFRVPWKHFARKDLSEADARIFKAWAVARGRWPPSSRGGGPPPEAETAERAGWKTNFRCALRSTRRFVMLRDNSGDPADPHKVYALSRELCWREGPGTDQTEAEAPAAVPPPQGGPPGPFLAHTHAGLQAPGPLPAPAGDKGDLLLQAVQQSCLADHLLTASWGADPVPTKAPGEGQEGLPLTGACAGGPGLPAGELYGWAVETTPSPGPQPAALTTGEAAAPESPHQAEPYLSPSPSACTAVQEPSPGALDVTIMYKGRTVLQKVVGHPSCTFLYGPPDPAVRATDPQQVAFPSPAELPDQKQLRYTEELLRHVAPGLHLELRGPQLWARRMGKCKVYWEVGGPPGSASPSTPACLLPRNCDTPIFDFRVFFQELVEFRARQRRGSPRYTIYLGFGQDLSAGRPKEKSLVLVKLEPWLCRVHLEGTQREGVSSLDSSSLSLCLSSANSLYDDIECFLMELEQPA
# Method: protein-binding microarray
# Form: double-stranded DNA, one strand shown
# Matrix: in vitro
# Concentration: 250 nM
# Setting: 60-bp whole probe
# Added: salmon DNA 0.4 mg/ml
# Relative to: random background probes
# Reading: higher = stronger binding
Strand,log fluorescence [z-score]
GCCTAGCACGACGGTATCGGTCTCGTGACGTGCTAGGTCTTGATTCGCTTGACGCTGCTG,0.457
GCCTAGCACTAAGGTATCCTTATCCTTTAGTGCTAGGTCTTGATTCGCTTGACGCTGCTG,0.612
GCCTAGCACTCACCTCTGTCATTTTCACTGTGCTAGGTCTTGATTCGCTTGACGCTGCTG,0.0615

# Other studies, line by line
Substance,target,test,system,setting,how to read,measurement,result
"PhoQ, residues 284 288 289 292 302 303 GLASVI","PhoP, residues 12 14 15 18 19 SFCSL (Escherichia coli, UniProt P23836)","Sort-seq, refers to: YFP reporter",E. coli,"PhoQ-PhoP variant library, added: 10 µM Mg2+","relative to: high Mg2+ state, higher = stronger signaling",fold induction,6.28

# For quick reference, copied from above (block 3):
Strand,log fluorescence [z-score]
GCCTAGCACTCACCTCTGTCATTTTCACTGTGCTAGGTCTTGATTCGCTTGACGCTGCTG,0.0615
GCCTAGCACTAAGGTATCCTTATCCTTTAGTGCTAGGTCTTGATTCGCTTGACGCTGCTG,0.612
